Assay results collected from several papers.
A part holds a random share of what one study measured.
Sequence of UniProt Q8WTQ7 (whole entry, looked up): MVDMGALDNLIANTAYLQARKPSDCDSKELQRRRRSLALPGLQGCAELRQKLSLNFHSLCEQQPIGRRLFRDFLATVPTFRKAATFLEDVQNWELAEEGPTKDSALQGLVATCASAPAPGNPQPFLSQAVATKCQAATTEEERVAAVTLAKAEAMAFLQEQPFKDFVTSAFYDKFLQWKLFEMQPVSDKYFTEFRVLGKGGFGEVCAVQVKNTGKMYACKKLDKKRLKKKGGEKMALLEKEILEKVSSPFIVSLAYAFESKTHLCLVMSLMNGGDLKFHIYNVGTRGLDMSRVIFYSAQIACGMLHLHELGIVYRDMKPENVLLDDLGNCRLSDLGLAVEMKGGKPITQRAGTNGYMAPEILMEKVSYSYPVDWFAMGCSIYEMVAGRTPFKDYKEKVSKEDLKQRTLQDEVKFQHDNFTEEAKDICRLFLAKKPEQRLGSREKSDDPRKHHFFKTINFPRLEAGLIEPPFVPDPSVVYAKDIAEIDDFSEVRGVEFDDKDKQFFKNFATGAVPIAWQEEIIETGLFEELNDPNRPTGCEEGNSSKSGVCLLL
Sequence of UniProt Q9BXA7 (whole entry, looked up): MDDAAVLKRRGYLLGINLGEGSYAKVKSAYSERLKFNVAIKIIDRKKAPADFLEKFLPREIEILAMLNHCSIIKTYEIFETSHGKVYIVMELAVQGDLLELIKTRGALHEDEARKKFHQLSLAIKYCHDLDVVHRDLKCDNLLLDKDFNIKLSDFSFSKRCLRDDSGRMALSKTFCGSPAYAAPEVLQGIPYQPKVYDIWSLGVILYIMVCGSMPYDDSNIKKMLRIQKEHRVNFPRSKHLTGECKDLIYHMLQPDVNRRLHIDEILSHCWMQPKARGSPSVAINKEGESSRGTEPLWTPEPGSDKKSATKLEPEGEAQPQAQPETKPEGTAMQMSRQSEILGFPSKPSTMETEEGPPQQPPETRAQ
Sequence of UniProt Q8TD19 (whole entry, looked up): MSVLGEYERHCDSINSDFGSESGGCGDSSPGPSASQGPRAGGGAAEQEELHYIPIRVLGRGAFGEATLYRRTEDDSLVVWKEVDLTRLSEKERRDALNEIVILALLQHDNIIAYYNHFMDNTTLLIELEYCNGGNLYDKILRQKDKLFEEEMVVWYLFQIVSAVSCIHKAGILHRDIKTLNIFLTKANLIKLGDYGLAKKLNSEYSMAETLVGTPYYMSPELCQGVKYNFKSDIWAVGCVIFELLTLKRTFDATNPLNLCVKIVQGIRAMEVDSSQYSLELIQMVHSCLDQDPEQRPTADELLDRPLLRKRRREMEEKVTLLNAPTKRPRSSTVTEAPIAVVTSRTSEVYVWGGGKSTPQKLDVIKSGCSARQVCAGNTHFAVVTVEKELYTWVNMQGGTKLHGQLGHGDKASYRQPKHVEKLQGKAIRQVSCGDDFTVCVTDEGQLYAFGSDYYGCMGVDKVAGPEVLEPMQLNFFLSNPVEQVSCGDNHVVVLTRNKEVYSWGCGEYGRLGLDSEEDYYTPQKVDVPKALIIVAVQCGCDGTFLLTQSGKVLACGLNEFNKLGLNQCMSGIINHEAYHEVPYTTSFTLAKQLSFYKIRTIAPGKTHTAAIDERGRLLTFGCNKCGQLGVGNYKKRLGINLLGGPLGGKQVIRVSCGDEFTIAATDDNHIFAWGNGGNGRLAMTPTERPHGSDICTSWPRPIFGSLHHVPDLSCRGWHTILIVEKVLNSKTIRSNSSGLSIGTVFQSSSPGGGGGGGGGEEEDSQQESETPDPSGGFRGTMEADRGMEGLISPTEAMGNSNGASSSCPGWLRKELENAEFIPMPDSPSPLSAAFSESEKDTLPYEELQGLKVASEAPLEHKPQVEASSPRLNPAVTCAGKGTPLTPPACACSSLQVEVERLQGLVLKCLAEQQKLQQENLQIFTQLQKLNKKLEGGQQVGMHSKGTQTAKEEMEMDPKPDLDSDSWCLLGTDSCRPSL
Sequence of UniProt P57058 (whole entry, looked up): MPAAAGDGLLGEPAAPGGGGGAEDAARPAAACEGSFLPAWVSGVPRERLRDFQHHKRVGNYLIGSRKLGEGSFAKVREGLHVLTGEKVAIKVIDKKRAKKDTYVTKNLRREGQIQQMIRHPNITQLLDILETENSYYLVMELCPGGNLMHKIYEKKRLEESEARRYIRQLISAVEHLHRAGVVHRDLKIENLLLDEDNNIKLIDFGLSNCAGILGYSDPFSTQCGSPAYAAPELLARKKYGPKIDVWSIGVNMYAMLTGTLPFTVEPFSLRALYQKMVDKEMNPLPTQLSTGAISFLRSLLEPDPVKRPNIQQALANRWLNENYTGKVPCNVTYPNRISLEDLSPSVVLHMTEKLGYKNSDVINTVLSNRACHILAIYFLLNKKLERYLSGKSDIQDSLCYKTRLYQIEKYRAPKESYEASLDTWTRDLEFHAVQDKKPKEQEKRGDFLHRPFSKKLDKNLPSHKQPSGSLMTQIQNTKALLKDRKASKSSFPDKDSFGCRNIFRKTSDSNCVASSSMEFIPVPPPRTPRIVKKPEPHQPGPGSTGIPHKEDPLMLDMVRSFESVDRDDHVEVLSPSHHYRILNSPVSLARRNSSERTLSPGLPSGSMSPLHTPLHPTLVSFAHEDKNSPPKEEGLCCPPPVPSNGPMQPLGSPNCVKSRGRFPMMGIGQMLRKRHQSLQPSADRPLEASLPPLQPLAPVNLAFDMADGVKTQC
Sequence of UniProt P49336 (whole entry, looked up): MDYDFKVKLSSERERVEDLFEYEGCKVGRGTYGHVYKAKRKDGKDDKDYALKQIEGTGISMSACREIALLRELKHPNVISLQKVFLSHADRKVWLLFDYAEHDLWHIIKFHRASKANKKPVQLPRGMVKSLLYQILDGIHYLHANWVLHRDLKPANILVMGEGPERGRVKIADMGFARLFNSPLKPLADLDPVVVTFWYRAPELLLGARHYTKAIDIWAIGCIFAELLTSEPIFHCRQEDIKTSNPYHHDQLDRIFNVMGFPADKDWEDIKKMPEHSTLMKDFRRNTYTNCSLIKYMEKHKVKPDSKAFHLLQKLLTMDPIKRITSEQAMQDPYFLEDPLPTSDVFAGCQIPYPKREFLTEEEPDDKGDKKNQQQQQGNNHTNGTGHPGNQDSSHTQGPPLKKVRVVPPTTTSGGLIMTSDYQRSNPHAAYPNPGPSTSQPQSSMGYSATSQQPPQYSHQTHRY

Sample 1
Compound: COc1cccc(CNC(=O)c2nc3scc(COCc4ccc(C(=O)O)cc4)c3c(=O)[nH]2)c1
Observed: cell-free assay
Method: competition with immobilised ligand
Concentration: 1 µM
| target | remaining binding |
| --- | --- |
| TIE1 (Homo sapiens, UniProt P35590) | 100% |
| HUNK (Homo sapiens, UniProt P57058) | 100% |
| TSSK1B (Homo sapiens, UniProt Q9BXA7) | 88.2% |
| CDK8 (Homo sapiens, UniProt P49336) | 73.4% |
| GRK7 (Homo sapiens, UniProt Q8WTQ7) | 67% |
| NEK9 (Homo sapiens, UniProt Q8TD19) | 98.2% |
| PIM3 (Homo sapiens, UniProt Q86V86) | 100% |

Sample 2
Target: G protein-coupled receptor kinase 6 (GRK6, Homo sapiens, UniProt P43250)
Sequence of UniProt P43250 (whole entry, looked up): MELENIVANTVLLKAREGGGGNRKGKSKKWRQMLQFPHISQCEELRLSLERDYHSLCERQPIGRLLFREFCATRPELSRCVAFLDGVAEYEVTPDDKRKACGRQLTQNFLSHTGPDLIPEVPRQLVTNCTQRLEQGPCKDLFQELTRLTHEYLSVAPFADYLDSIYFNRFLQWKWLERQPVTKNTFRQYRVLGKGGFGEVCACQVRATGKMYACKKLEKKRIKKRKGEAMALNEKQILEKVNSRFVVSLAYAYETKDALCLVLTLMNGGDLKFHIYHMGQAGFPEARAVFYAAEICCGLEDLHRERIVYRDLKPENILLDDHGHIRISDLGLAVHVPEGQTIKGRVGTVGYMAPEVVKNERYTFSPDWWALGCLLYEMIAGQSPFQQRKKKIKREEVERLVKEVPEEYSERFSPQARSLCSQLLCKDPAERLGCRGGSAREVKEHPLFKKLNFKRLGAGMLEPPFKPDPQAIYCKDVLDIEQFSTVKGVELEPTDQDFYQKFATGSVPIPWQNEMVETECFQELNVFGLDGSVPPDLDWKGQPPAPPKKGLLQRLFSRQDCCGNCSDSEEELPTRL
Observed: enzyme activity
Action: inhibitor
Concentration: 0.5 µM
Reference: control
| Structure (SMILES) | remaining activity [%] |
| --- | --- |
| Cc1ccc(NC(=O)c2ccc(CN3CCN(C)CC3)cc2)cc1Nc1nc(-c2cccnc2)cs1 | 104 |
| CCOC(=O)c1c(C)[nH]c(/C=C2\C(=O)Nc3ccccc32)c1C | 90.8 |
| COc1ccc(CNC(=O)Nc2ncc([N+](=O)[O-])s2)cc1 | 99.6 |
| COc1ccc(C(=O)Nc2sc3c(c2C(N)=O)CCCC3)cc1OC | 98.5 |
| Cn1c2ccccc2c2c3c(c4c5ccccc5n(CCC#N)c4c21)CNC3=O | 44.4 |
| O=C(O)c1ccc2c3c1cccc3c(=O)n1c3ccccc3nc21 | 91.4 |
| COc1cc2ncnc(Nc3ccc(F)c(Cl)c3)c2cc1OCCCN1CCOCC1 | 99.6 |
| O=C(Nc1cccc(Nc2cc(Nc3cccc(C(F)(F)F)c3)ncn2)c1)C1CC1 | 98.3 |
| N#CC(C#N)=C(N)/C(C#N)=C/c1ccc(O)cc1 | 107 |
| COc1cc2nccc(Oc3ccc(NC(=S)NC(=O)c4ccccc4C)cc3)c2cc1OC | 91 |
| CC(C)[C@H](CO)Nc1nc(Nc2cc(N)cc(Cl)c2)c2ncn(C(C)C)c2n1 | 72.1 |
| Oc1ccc(-c2nc(-c3ccncc3)c(-c3ccc(F)cc3)[nH]2)cc1 | 99.7 |
| Nc1ccc2ncnc(NCCc3ccc(Oc4ccccc4)cc3)c2c1 | 99.3 |
| NCCNc1ncc(C(N)=O)c(Nc2cccc(C(F)(F)F)c2)n1 | 95.1 |
| CO[C@H]1C[C@@H]2CC[C@@H](C)[C@@](O)(O2)C(=O)C(=O)N2CCCC[C@H]2C(=O)O[C@H]([C@H](C)C[C@@H]2CC[C@@H](O)[C@H](OC)C2)CC(=O)[C@H](C)/C=C(\C)[C@@H](O)[C@@H](OC)C(=O)[C@H](C)C[C@H](C)/C=C/C=C/C=C/1C | 103 |
| Nc1[nH]nc2nc3ccccc3nc12 | 104 |

Sample 3
Cell line: A-375
Concentration: 100 µM
Time: 18 h
| Structure (SMILES) | viability [%] |
| --- | --- |
| C#CC1(O)CC[C@H]2[C@@H]3CCC4=CC(=O)CC[C@@H]4[C@H]3CC[C@@]21CC (stereo partly shown) | 62.3 |
| CC(C)NCC(O)COc1cccc2[nH]c3ccccc3c12 (stereo not shown) | 43.8 |
| CN1C(=O)OC(C)(C)C1=O | 91.9 |
| O=C(O)c1cc(=O)[nH]c(=O)[nH]1 | 91.6 |
| CN1CCN(C2=Nc3ccccc3Oc3ccc(Cl)cc32)CC1 | 15.4 |

Sample 4
Species: human
Medium: microsomes or S9
Concentration: 2 µM
Time: 0.5 h
| Structure (SMILES) | remaining compound [%] |
| --- | --- |
| O=C(O)C(c1ccsc1)N1C[C@@H]2Oc3c(F)ccc(F)c3O[C@@H]2C1 (stereo partly shown) | > 100 |
| Cc1cc(C)c(S(=O)(=O)N2CCCCC2)c(C)c1N(C)S(C)(=O)=O | 14.9 |
| Cc1nc(-c2ccc(NC(=O)c3cscn3)cc2Cl)n[nH]1 | 86 |
| CCOC(=O)c1ccc(NC2C=CC(=O)C2Nc2ccc(C(=O)OCC)cc2)cc1 (stereo not shown) | 0.449 |
| CCCN(C(=O)c1cc(S(=O)(=O)N2CCc3ccccc32)cn1C)c1ccccc1OC | < 1 |
| O=C(N[C@H]1C2C=CC(C2)[C@H]1C(O)(c1ccccc1)c1ccccc1)OCc1ccccc1 (stereo partly shown) | 39 |
